Published values of several laboratories.
Lines come from different studies, so protocols differ. ± gives the spread as reported.
Target: Albumin (ALB, Bos taurus, UniProt P02769)
Chain of UniProt P02769 (whole entry, looked up): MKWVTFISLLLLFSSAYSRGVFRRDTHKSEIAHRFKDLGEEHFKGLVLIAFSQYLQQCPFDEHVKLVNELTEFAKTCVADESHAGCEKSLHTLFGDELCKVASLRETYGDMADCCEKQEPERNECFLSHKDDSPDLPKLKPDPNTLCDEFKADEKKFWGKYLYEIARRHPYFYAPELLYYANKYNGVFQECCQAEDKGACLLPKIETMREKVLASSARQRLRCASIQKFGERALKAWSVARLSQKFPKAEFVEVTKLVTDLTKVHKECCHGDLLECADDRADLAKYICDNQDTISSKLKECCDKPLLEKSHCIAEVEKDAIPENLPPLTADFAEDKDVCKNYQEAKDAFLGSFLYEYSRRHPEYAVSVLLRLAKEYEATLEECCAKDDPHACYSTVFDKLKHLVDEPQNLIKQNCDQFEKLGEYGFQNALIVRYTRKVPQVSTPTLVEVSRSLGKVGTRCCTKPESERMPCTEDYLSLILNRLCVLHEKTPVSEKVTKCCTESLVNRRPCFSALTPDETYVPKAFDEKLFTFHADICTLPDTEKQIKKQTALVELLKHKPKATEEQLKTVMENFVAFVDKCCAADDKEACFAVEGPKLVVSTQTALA

Compound	test	test system	setting	quantity	result
COC(=O)c1cnc(-c2cnccn2)cc1C(=O)OC.COC(=O)c1cnc(-c2cnccn2)cc1C(=O)OC.O.O.O.O=S(=O)([O-])C(F)(F)F.O=S(=O)([O-])C(F)(F)F.[Cu+2]	fluorescence emission		emission 365.0 nm	fluorescence quenching	84.4%
O=C([O-])CN(CCN(CC(=O)[O-])CC(=O)NCCc1c[nH]c2ccc(O)cc12)CCN(CC(=O)[O-])CC(=O)NCCc1c[nH]c2ccc(O)cc12.[Gd+3]	binding		concentration not given, 1 h, 40 °C, no BSA, together with: MPO, glucose oxidase, glucose	T1 shortening	34%
Cc1ccc(C(C)C)cc1.[Cl-].[Cl][Ru+].[Ru+].c1ccc(-c2cn(CCCCOc3ccccc3-c3nc4ccccc4s3)nn2)nc1	tryptophan fluorescence quenching			quenching rate constant	1.3e+13 M⁻¹ s⁻¹
Oc1ccc2c(c1)[O][Pt-2]1([Cl])[N+](=C2)c2ccccc2[NH+]1c1ccccc1 (stereo not shown)	binding to BSA			binding free energy	-7.89 kcal/mol
C#CC(=O)c1ccc(-c2c([Si](C)(C)C)c3ccccc3c3cc(-c4ccccc4)c4ccccc4[n+]23)cc1	LC-MS		16 h, pH 7.4, 25 °C, covalent modification of Cys34	conversion	65%
CCN(CC)c1ccc2c(c1)Oc1cc(N(CC)CC)ccc1C21c2ccccc2C(=O)N1N=Cc1c[c-]c(-c2ccccn2)cc1.Cc1c(C)c(-c2ccc(-c3ccccc3)cc2)[c-](C)c1C.[Cl-].[Ir+3]	fluorescence quenching	bovine serum albumin	concentration not given, 298 K	number of binding sites	0.944
CCN(CC)c1ccc2c(c1)[O][Pt-2]1([Cl])[N+](=C2)c2ccccc2[NH+]1c1ccccc1 (stereo not shown)	binding to BSA			binding free energy	-9.08 kcal/mol
CN(C)c1ccc(/N=N/c2ccc(S(=O)(=O)O)cc2)cc1			concentration not given, pH 7.5, 25 °C	nonspecific binding coefficient	0.000938
CCCCCCCCCCCC(=O)Nc1ccccc1SSc1ccccc1NC(=O)CCCCCCCCCCC	binding, fluorescence quenching		308 K	Gibbs free energy change	-7.02 kcal/mol
CC(=O)[O-].O.O.O.O.[Mn+2].[O-]c1ccc(Br)cc1C=NCCN1CCOCC1	UV absorption titration		concentration not given, pH 7.2, 25 °C	hyperchromism	47.9%
CC1=[N+]2N=C(c3ccccc3)[O][Pd-2]2([Cl])[O+]=C2Oc3ccccc3C=C21 (stereo not shown)	fluorescence titration		345 nm	fluorescence quenching	69.4%
O=[N][Fe]1([N]=O)[S](CCO)[Fe]([N]=O)([N]=O)[S]1CCO	EPR spin quantitation	PBS	pH 7.4	conversion to protein-bound form	50%
Cc1ccc(C(C)C)cc1.O=C([N-]c1nc2ccccc2s1)c1cnccn1.[Cl-].[Ru+2]	tryptophan fluorescence quenching		concentration not given	number of binding sites	0.71
C#CC(=O)Nc1ccc(-c2c([Si](C)(C)C)c3ccccc3c3c4ccccc4cc[n+]23)cc1	LC-MS		16 h, pH 7.4, 25 °C, covalent modification of Cys34	conversion	53%
O=C([O-])CN1CCN(CC(=O)[O-])CCN(C(CCC(=O)NC(Cc2c[nH]c3ccc(O)cc23)C(=O)NCCc2c[nH]c3ccc(O)cc23)C(=O)O)CCN(CC(=O)[O-])CC1.[Gd+3] (stereo not shown)	binding		concentration not given, 1 h, 40 °C, together with: BSA, MPO, glucose oxidase, glucose	T1 shortening	121%
O=C(O[C@@H]1Cc2c(O)cc(O)cc2O[C@@H]1c1cc(O)c(O)c(O)c1)c1cc(O)c(O)c(O)c1	binding, circular dichroism		200 µM, pH 7.4, at 280 nm, together with: BSA 30 µM	induced CD amplitude	~0.8 mdeg
CCCCCCCCCCCCCCCC(=O)Nc1ccccc1SSc1ccccc1NC(=O)CCCCCCCCCCCCCCC	binding, fluorescence quenching		308 K	Gibbs free energy change	-3.22 kcal/mol
C#CC(=O)Nc1ccc(-c2c([Si](C)(C)C)c3ccccc3c3cc(-c4ccccc4)c4ccccc4[n+]23)cc1	LC-MS		16 h, pH 7.4, 25 °C, covalent modification of Cys34	conversion	28%
CCCCCCCCCCCCCC(=O)Nc1ccccc1SSc1ccccc1NC(=O)CCCCCCCCCCCCC	binding, fluorescence quenching		308 K	Gibbs free energy change	-7.25 kcal/mol
Cn1ccn(N=Cc2ccccc2SSc2ccccc2C=Nn2ccn(C)c2=S)c1=S	adduct formation, optical absorption spectra		together with: BSA 40 µM	reaction completion time	≤ 2 h
CCOc1cccc2c1[O][Pt-2]1([Cl])[N+](=C2)CC[NH+]1c1ccccc1 (stereo not shown)	binding to BSA			binding free energy	-10.5 kcal/mol
Cc1ccc2ccc3ccc(C)nc3c2n1.Cc1ccc2ccc3ccc(C)nc3c2n1.O.[Cl-].[Cl-].[Cl-].[Yb+3]	fluorescence quenching		298 K	ΔG°	-7.758 ± 0.012 kcal/mol

For quick reference, copied from above:
Compound	test	test system	setting	quantity	result
CC(=O)[O-].O.O.O.O.[Mn+2].[O-]c1ccc(Br)cc1C=NCCN1CCOCC1	UV absorption titration		concentration not given, pH 7.2, 25 °C	hyperchromism	47.9%
CC1=[N+]2N=C(c3ccccc3)[O][Pd-2]2([Cl])[O+]=C2Oc3ccccc3C=C21 (stereo not shown)	fluorescence titration		345 nm	fluorescence quenching	69.4%
O=[N][Fe]1([N]=O)[S](CCO)[Fe]([N]=O)([N]=O)[S]1CCO	EPR spin quantitation	PBS	pH 7.4	conversion to protein-bound form	50%
